Results gathered from unrelated publications.
A part holds a random share of what one study measured. “And” joins repeats or separate records; there may be more than shown.
UniProt Q16853, sequence (whole entry, looked up): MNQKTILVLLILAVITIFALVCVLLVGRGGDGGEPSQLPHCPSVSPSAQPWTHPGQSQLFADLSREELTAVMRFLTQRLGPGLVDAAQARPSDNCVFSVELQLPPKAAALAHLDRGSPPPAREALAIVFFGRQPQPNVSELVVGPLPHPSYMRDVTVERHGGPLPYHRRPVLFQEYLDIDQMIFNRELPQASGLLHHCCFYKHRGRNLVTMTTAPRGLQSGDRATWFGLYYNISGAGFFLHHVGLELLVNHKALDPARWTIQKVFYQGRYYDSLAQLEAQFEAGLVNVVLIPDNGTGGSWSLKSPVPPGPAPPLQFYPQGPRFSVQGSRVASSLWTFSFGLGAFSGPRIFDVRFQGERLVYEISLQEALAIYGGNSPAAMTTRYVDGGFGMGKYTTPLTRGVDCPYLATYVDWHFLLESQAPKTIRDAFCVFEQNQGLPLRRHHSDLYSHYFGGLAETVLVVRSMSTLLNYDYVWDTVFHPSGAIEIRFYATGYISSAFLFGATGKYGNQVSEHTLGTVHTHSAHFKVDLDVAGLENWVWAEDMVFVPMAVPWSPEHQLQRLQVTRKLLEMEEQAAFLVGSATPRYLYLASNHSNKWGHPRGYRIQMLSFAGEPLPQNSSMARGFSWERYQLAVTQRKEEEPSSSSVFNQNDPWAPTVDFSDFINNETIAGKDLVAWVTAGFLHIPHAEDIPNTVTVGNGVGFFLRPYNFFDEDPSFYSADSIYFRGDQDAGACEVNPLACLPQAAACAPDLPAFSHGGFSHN
UniProt P42336, sequence (whole entry, unmodified, looked up): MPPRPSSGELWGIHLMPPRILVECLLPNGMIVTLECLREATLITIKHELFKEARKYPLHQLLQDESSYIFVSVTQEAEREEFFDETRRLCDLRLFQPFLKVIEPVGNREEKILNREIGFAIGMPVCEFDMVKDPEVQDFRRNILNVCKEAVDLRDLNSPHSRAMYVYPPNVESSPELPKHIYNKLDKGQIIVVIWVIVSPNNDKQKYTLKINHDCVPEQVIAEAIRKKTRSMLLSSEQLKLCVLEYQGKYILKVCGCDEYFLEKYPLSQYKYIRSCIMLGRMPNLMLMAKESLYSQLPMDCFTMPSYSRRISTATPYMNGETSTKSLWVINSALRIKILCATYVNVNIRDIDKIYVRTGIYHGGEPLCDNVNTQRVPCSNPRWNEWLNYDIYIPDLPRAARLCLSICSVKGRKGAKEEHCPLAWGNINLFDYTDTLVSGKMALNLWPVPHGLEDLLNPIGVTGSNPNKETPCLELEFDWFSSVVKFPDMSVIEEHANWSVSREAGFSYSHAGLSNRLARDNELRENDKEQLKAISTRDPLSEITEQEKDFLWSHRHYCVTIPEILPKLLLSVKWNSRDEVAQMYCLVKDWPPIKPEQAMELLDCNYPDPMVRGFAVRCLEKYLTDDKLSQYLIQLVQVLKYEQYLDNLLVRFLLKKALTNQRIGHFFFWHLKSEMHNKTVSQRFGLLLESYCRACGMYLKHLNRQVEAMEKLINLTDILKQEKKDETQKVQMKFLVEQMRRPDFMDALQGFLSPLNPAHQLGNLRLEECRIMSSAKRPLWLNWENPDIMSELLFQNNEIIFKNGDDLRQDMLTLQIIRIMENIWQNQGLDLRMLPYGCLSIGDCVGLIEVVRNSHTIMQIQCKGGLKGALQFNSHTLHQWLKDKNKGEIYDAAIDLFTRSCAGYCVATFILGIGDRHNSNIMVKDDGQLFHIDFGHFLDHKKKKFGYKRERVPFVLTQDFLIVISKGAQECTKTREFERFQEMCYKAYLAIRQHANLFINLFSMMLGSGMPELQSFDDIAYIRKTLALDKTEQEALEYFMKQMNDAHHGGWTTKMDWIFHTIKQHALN
UniProt Q8N752, sequence (whole entry, looked up): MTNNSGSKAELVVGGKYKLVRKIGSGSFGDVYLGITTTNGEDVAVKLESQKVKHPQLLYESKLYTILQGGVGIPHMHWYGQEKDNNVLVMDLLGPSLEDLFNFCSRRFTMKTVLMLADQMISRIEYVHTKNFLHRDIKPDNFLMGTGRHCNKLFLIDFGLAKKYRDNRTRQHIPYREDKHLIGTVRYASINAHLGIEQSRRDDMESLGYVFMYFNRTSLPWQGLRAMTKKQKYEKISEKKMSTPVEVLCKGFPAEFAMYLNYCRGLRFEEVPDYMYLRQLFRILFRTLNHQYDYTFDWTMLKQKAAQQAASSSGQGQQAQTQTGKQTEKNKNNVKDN
UniProt O00238, sequence (whole entry, looked up): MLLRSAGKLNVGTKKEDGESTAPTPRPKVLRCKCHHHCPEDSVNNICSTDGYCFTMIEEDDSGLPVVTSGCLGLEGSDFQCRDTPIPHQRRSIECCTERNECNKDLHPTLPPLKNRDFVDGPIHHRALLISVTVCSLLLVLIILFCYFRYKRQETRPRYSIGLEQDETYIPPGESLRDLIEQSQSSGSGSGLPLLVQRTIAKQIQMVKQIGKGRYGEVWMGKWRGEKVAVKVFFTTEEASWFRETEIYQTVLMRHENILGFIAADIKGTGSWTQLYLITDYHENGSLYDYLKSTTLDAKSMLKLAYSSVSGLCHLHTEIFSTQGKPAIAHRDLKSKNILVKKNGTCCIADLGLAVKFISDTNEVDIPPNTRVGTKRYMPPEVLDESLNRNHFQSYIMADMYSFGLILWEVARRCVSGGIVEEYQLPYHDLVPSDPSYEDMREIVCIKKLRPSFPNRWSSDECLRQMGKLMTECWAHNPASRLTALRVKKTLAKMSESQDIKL
UniProt Q04759, sequence (whole entry, looked up): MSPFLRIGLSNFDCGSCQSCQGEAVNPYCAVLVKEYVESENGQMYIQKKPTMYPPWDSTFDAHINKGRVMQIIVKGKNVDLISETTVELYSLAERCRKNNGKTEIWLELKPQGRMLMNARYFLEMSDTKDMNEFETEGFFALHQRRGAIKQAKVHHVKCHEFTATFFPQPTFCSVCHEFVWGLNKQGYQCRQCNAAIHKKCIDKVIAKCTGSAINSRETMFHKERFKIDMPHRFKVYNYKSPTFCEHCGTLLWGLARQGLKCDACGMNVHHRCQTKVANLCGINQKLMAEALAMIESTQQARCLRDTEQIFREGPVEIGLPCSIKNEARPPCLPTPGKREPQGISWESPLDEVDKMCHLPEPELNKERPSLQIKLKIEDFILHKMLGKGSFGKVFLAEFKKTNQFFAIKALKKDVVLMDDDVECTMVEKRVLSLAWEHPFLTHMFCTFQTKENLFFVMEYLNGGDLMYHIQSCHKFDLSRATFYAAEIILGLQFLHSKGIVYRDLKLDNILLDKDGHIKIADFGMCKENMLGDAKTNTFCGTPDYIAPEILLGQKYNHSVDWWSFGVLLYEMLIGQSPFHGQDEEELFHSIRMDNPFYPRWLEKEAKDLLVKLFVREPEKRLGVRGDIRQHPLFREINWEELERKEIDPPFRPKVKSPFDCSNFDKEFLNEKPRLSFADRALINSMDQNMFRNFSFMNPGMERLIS
UniProt Q8IVH8, sequence (whole entry, looked up): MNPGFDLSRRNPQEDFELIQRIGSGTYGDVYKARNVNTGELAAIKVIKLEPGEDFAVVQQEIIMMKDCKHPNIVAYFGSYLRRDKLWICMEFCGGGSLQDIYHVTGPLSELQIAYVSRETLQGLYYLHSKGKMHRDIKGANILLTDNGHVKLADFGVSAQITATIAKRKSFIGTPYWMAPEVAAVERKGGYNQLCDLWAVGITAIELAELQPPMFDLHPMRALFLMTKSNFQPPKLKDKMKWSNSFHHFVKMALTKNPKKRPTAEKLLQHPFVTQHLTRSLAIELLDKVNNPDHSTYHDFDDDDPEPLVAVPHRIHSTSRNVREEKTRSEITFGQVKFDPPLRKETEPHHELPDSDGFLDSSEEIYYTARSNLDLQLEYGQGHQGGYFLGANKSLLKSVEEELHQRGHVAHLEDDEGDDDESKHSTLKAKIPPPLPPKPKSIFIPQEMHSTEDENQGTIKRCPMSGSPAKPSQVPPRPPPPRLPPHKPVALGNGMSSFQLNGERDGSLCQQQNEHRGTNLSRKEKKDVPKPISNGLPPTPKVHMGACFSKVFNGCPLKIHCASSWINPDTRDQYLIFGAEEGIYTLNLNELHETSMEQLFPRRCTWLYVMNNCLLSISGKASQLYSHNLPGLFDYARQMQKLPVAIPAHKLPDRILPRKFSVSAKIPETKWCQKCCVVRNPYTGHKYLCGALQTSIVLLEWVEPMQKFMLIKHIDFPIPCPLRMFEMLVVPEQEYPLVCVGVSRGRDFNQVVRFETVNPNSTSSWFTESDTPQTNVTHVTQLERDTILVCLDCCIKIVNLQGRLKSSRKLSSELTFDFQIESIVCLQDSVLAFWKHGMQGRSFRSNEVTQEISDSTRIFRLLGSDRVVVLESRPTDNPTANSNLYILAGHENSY

Sample 1
SMILES: Cc1ncsc1-c1ccc(C(CO)NC(=O)C2CC(O)CN2C(=O)C(C(C)C)n2cc(-c3ccc(COc4c(-c5c(C)c(F)cc6[nH]ncc56)c(C5CC5)cc5c(N6CC7CC6CN7)nc(OC6CCOCC6)nc45)cc3)nn2)cc1 (stereo not shown)
| test system | setting | tumour volume |
| --- | --- | --- |
| mouse, PK-59 xenograft | 1 mg/kg, day 17 | 790 mm3 and 868 mm3 and 1030 mm3 and 985 mm3 and 847 mm3 |
| mouse, lung LXFA sample A PDX | 30 mg/kg twice weekly, day 19 | 47.8 mm3 and 141 mm3 and 68.7 mm3 and 44.6 mm3 and 119 mm3 and 71.3 mm3 and 80.9 mm3 and 7.8 mm3 |
| GP5d xenograft, mouse | 30 mg/kg once weekly, day 0 | 187 mm3 and 173 mm3 and 189 mm3 and 154 mm3 and 163 mm3 |
| mouse, PK-59 xenograft | 0.3 mg/kg, day 7 | 774 mm3 and 670 mm3 and 636 mm3 and 649 mm3 and 641 mm3 |
| mouse, PK-59 xenograft | 30 mg/kg, day 21 | 92.3 mm3 and 80.1 mm3 and 123 mm3 and 148 mm3 and 96.7 mm3 |
| mouse, lung LXFA sample B PDX | 10 mg/kg twice weekly, day 14 | 217 mm3 and 296 mm3 and 323 mm3 and 82.9 mm3 and 112 mm3 and 120 mm3 and 41.7 mm3 and 155 mm3 |
| GP5d xenograft, mouse | 30 mg/kg twice weekly, day 14 | 225 mm3 and 136 mm3 and 119 mm3 and 172 mm3 and 228 mm3 |
| mouse, PK-59 xenograft | 3 mg/kg, day 21 | 563 mm3 and 529 mm3 and 570 mm3 and 413 mm3 and 405 mm3 |
| mouse, lung LXFA sample A PDX | 30 mg/kg twice weekly, day 0 | 82.9 mm3 and 115 mm3 and 67.9 mm3 and 45.4 mm3 and 111 mm3 and 178 mm3 and 188 mm3 and 273 mm3 |
| GP2d xenograft, mouse | 30 mg/kg once weekly, day 7 | 241 mm3 and 199 mm3 and 162 mm3 and 130 mm3 and 185 mm3 |

Sample 2 — observed: binding; technique: competition with immobilised ligand; concentration: 1 µM
Structure (SMILES): COc1cc(-c2nc3ccc(C(=O)NCCCN(C)C)cc3n2C2CCC2)cc(OC)c1OC
| target | remaining binding [%] |
| --- | --- |
| PIK3CA (Homo sapiens, UniProt P42336, C420R) | 66 |
| MYLK (Homo sapiens, UniProt Q15746) | 100 |
| Ribosomal protein S6 kinase alpha-3, N-terminal kinase domain (RPS6KA3, Homo sapiens, UniProt P51812) | 100 |
| PIK3CA (Homo sapiens, UniProt P42336, I800L) | 79 |
| FLT1 (Homo sapiens, UniProt P17948) | 100 |
| BMPR1B (Homo sapiens, UniProt O00238) | 6.2 |
| MAP4K3 (Homo sapiens, UniProt Q8IVH8) | 80 |
| Ribosomal protein S6 kinase alpha-4, C-terminal kinase domain (RPS6KA4, Homo sapiens, UniProt O75676) | 99 |
| TLK2 (Homo sapiens, UniProt Q86UE8) | 92 |
| PRKCQ (Homo sapiens, UniProt Q04759) | 83 |
| EGFR (Homo sapiens, UniProt P00533, A750P/del747-749) | 75 |
| STK3 (Homo sapiens, UniProt Q13188) | 100 |
| CSNK1A1L (Homo sapiens, UniProt Q8N752) | 51 |
| ACVR1B (Homo sapiens, UniProt P36896) | 55 |
| FLT3 (Homo sapiens, UniProt P36888, D835Y) | 100 |

Sample 3 — observed: enzyme activity; action: inhibitor; technique: fluorescence
Structure (SMILES): CC(=O)NC/C(=C\F)COc1cccc(Cn2c(=S)[nH]c(=O)c3[nH]cnc32)c1
MPO: Myeloperoxidase (MPO, Homo sapiens, UniProt P05164)
UniProt P05164, sequence (whole entry, looked up): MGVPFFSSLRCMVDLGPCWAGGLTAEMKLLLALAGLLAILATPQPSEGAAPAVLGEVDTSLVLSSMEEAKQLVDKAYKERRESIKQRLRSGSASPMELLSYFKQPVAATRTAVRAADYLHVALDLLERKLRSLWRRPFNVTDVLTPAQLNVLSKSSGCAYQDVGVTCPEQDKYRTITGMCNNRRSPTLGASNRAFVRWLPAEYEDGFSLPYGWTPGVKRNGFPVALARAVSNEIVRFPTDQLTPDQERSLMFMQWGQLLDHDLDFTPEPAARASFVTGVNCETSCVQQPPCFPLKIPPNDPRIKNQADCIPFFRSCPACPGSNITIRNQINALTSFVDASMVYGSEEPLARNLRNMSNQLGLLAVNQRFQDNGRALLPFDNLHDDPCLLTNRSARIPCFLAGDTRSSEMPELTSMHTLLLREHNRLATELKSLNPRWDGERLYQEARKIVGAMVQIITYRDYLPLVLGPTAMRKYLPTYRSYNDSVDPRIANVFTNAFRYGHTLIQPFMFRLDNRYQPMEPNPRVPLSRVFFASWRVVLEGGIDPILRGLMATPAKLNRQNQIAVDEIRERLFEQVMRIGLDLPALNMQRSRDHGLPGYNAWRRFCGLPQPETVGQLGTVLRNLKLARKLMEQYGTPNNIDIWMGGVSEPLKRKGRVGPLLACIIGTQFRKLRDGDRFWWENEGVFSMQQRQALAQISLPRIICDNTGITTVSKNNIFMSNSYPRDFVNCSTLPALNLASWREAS
| target | setting | inhibition |
| --- | --- | --- |
| MPO | 41.2 nM | 19.2% and 26% and 21.2% |
| MPO | 3.333 µM | 98.5% and 95.8% and 98.7% |
| AOC3 (Homo sapiens, UniProt Q16853) | 30 µM | 24.7% and 46.8% |
| MPO | 13.7 nM | 14.1% and 4.63% and 9.44% |
| MPO | 30 µM | 99.4% and 99.8% and 99.2% |
| MPO | 10 µM | 99.3% and 99.9% and 98.7% |

Sample 4 — observed: binding; technique: HTRF; concentration: 333.33 nM
Target: Membrane-associated tyrosine- and threonine-specific cdc2-inhibitory kinase (PKMYT1, Homo sapiens, UniProt Q99640)
Residues (Q99640 1-499): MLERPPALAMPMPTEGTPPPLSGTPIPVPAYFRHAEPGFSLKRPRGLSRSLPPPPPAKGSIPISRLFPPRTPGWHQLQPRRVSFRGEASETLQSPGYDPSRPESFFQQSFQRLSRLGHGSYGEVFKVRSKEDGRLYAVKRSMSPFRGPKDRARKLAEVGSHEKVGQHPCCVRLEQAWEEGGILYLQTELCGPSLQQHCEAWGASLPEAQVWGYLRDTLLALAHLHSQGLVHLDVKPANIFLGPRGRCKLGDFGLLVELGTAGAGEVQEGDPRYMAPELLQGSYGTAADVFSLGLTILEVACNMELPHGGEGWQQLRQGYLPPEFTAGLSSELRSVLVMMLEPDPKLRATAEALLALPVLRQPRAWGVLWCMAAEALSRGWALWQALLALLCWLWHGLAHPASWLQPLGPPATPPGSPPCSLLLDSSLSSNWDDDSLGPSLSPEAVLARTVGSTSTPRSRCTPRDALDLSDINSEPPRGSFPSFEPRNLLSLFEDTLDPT
| SMILES | inhibition |
| --- | --- |
| Cc1ccc(O)c(C)c1-c1cnc2[nH]c(-c3cnc(N4CCC(CN5CCN(c6c(F)cc(NC7CCC(=O)NC7=O)cc6F)CC5)CC4)nc3)cc2c1C#N (racemic) | 95.7% and 94% |
| Cc1ccc(O)c(C)c1-c1cnc2[nH]c(-c3cnc(N4CCC5(CC4)CC(N4CCN(c6cc7c(cc6F)c(N6CCC(=O)NC6=O)nn7C)CC4)CO5)nc3)cc2c1C#N (racemic) | 99.2% |
| Cc1ncc(-c2cc3c(N)c(-c4c(C)ccc(O)c4C)cnc3[nH]2)cn1 | 87.4% and 87.1% |
| Cc1ccc(O)c(C)c1-c1cnc2[nH]c(-c3cnc(N4CCC5(CC4)CC(N4CCN(c6ccc7c(c6)C(=O)N(C6CCC(=O)NC6=O)C7=O)CC4)CO5)nc3)cc2c1C#N (mixture of isomers) | 99.2% and 99.7% |
| Cc1ccc(O)c(C)c1-c1cnc2[nH]c(-c3cnc(N4CCC(CCN5CCN(c6ccc7c(c6)C(=O)N(C6CCC(=O)NC6=O)C7=O)CC5)CC4)nc3)cc2c1C#N (racemic) | 99.3% and 98.9% |
| Cc1ccc(O)c(C)c1-c1cnc2[nH]c(-c3cnc(N4CCC(CN5CCN(c6ccc(NC7CCC(=O)NC7=O)c(F)c6)CC5)CC4)nc3)cc2c1C#N (racemic) | 101% and 100% |

Repeated from above (sample 4):
| SMILES | inhibition |
| --- | --- |
| Cc1ccc(O)c(C)c1-c1cnc2[nH]c(-c3cnc(N4CCC(CN5CCN(c6c(F)cc(NC7CCC(=O)NC7=O)cc6F)CC5)CC4)nc3)cc2c1C#N (racemic) | 95.7% and 94% |
| Cc1ccc(O)c(C)c1-c1cnc2[nH]c(-c3cnc(N4CCC(CN5CCN(c6ccc(NC7CCC(=O)NC7=O)c(F)c6)CC5)CC4)nc3)cc2c1C#N (racemic) | 101% and 100% |
| Cc1ncc(-c2cc3c(N)c(-c4c(C)ccc(O)c4C)cnc3[nH]2)cn1 | 87.4% and 87.1% |
